Measured values collected from several papers.
± gives the spread as reported.
Cell line: MCF7

CC(C)=CCc1c(O)cc2oc3cc(O)c(O)c(CC=C(C)C)c3c(=O)c2c1O  IC50 (cell growth or viability; 48 h): 5.33 µM
COc1cccc(CNC[C@@](O)(COCc2ccccc2)[C@@H]2CC[C@@H](C)C[C@H]2OCc2ccccc2)c1  IC50 (cell growth or viability, MTT; 72 h): 1.5 µM
COc1cccc(Cn2cc(COc3c(OC)ccc4cc5[n+](cc34)CCc3cc4c(cc3-5)OCO4)nn2)c1  IC50 (cell growth or viability, MTT): 41.2 µM
CSc1nc(Nc2cccc(/C(C)=N/NC(=O)c3ccccc3O)c2)c(C#N)c(-c2ccccc2)n1  IC50 (cell growth or viability, MTT; 48 h): 30.1 µM
CC1=C2[O][Ru-]([Cl])[O+]=C2C=CN1CCCCCCCCCCCCN1C=CC2=[O+][Ru-]([Cl])[O]C2=C1C.Cc1ccc(C(C)C)cc1.Cc1ccc(C(C)C)cc1  IC50 (cell growth or viability, crystal violet; 96 h): 2.1 µM
[Cl][Au].[Se]=c1n(C23CC4CC(CC(C4)C2)C3)ccn1C12CC3CC(CC(C3)C1)C2  IC50 (cell growth or viability, MTT; 72 h): 2.7 µM
C=C(C)[C@@H]1CC[C@]2(C(=O)OCO/N=[N+](\[O-])N3CCCC3)CC[C@]3(C)[C@H](CC[C@@H]4[C@@]5(C)CC[C@H](OC(C)=O)C(C)(C)[C@@H]5CC[C@]43C)[C@@H]12  IC50 (cell growth or viability, MTT; 72 h): 0.92 µM
O=C1c2ccccc2C2C(=O)c3ccccc3OC12 (stereo not drawn)  IC50 (cell growth or viability, resazurin; 96 h): 5.69 µg/mL
[Cl][Pd-2]([Cl])([N+](=Cc1ccc[nH]1)Cc1ccco1)[N+](=Cc1ccc[nH]1)Cc1ccco1  IC50 (cell growth or viability, MTT; 24 h): > 100 µg/mL
CCCCCCCCCCCCOc1c(O)cc(C(=O)O[C@@H]2Cc3c(O)cc(O)cc3O[C@@H]2c2cc(O)c(O)c(O)c2)cc1O  IC50 (cell growth or viability, CCK-8; 24 h): 96.9 µM
C[C@]12CC/C(=N\OCCN3CCCCC3)C=C1CCC1C2CC[C@]2(C)/C(=C/c3ccccn3)CCC12 (stereo partly drawn)  IC50 (cell growth or viability, MTT; 72 h): > 100 µM
O=C(NCCCCCCCNc1n[n+]([O-])c2ccccc2[n+]1[O-])C(F)(F)F  IC50 (cytotoxicity, MTT; 10% FBS medium; 6 h + 18 h, hypoxia 3% O2): 42.2 ± 0.3 µM
CCC1=C(CC)C2=[N+]3C1=Cc1c(CC)c(CC)c4[n]1[Ir-3]31([C]#[N+]c3ccc(OC)cc3)([C]#[N+]c3ccc(OC)cc3)[n]3c(c(CC)c(CC)c3=CC3=[N+]1C(=C4)C(CC)=C3CC)=C2.F[B-](F)(F)F  IC50 (cell growth or viability, MTT; 72 h): > 100 µM
N=C(N)NCCC[C@H](N)C(=O)N[C@@H](Cc1ccc(O)cc1)C(=O)N[C@@H](Cc1c[nH]c2ccccc12)C(=O)N[C@@H](Cc1ccc(O)cc1)C(=O)NCC(N)=O  IC50: > 100 µM
Fc1ccc(-c2noc(-c3cccs3)c2C(F)(F)F)cc1  IC50 (cell growth or viability, MTT; 48 h): 18.7 µM
CCCCCCCCC=CCCCCCCCC(=O)OC(COC(=O)Cc1c(C)n(C(=O)c2ccc(Cl)cc2)c2ccc(OC)cc12)COP(=O)([O-])OCC[N+](C)(C)C (stereo not drawn)  IC50 (cell growth or viability, SRB; 72 h): 58.2 µM
Cc1nnc2c3c(-c4ccc5ccccc5n4)cc(-c4ccccc4)nc3n3c(C)nnc3n12  IC50 (cell growth or viability, MTT; 48 h): 7.5 µM
CSC(=S)N/N=C(\C)c1ccc(S(=O)(=O)N2CCC(C)CC2)cc1  IC50 (cell growth, MTT): 3.53 to 5.58 µM
CSC(=S)N/N=C(\C)c1ccc(Nc2nnc(-c3ccc(Cl)cc3)c3ccccc23)cc1  IC50 (cell growth or viability, MTT): 0.28 µM
C[C@@H]1CC[C@@H]([C@@](O)(CNCc2ccccc2F)COCc2ccccc2)[C@H](OCc2ccccc2)C1  IC50 (cell growth or viability, MTT; 72 h): 5.1 µM
O=[C]=[Re-2]1(=[C]=O)(=[C]=O)([O]C(=O)c2ccccc2Nc2cccc(C(F)(F)F)c2)[n+]2ccc(-c3ccccc3)c3ccc4c(-c5ccccc5)cc[n+]1c4c32  IC50 (cell growth or viability, resazurin; 72 h): 2.75 µM
O=C(NCCCCNc1n[n+]([O-])c2ccccc2[n+]1[O-])C(F)(F)F  IC50 (cytotoxicity, MTT; 10% FBS medium; 6 h + 18 h, hypoxia 3% O2): 35.7 ± 7.9 µM
C1=CCC=C1.[Cl][Pd-2]1([Cl])[N+](=P(c2ccccc2)(c2ccccc2)C2C=CC=C2)Cc2cccc[n+]21.[Fe+2]  IC50 (cell growth or viability, MTT; 74 h): 10.2 µM
NS(=O)(=O)c1ccc(/N=N/c2ccc(O)c(/C=N/c3ccccn3)c2)cc1  IC50 (cell growth or viability, MTT; 48 h): 4.85 µM
CCC(C(=O)O)C1CCC(C)C(C(C)C(O)C(C)C(=O)C(CC)C2OC3(C=CC(NCc4cn(COC(=O)C(C)(C)C)nn4)C4(CCC(C)(C5CCC(O)(CC)C(C)O5)O4)O3)C(C)CC2C)O1 (stereo not drawn)  IC50 (cell growth or viability, resazurin; 72 h): 2.91 µM
Clc1cc(Br)c2c(c1)CCc1cccnc1C2=C1CCNCC1  IC50 (cell growth or viability, SRB): < 15 µM
Cc1c(C)c(C)[c-](C)c1C.O=Cc1c[c-]c(-c2ccccn2)cc1.[Cl-].[Ir+3]  IC50 (SRB; 24 h, 72 h recovery): 11.6 ± 0.5 µM
CC1=NN(C(N)=S)C(c2ccccc2)C1 (stereo not drawn)  IC50 (cell growth or viability, LDH; 48 h): 5.8 µM
CCCCCCCCCCCCn1c(-c2cccnc2)nc(-c2ccc(C)cc2)c1-c1ccc(C)cc1  IC50 (cell growth or viability, SRB; 48 h): > 100 µM
CC(=O)c1ccc(NC(=O)CCc2nc3cc(Cl)ccc3[nH]c2=O)cc1  IC50 (cell growth or viability, MTT): 76.7 µM
CC1=CC(C)=[O+][Pt-2]([NH3+])([NH3+])[O]1.CC1=CC(C)=[O+][Pt-2]([NH3+])([NH3+])[O]1.O=S(=O)([O-])[O-] (stereo not drawn)  IC50 (cell growth or viability, MTT): 76 µM
Oc1ccc2c(c1)[O][Pt-2]1([Cl])[N+](=C2)CC[NH+]1c1ccccc1 (stereo not drawn)  IC50 (cell growth or viability, MTT): 76.5 µM
COc1ccc2cc3[n+](cc2c1OCc1cn(Cc2c(Cl)cc(Cl)cc2Cl)nn1)CCc1cc2c(cc1-3)OCO2  IC50 (cell growth or viability, MTT): 12.6 µM
c1ccc(-c2nc(-c3cccnc3)[nH]c2-c2ccccc2)cc1  IC50 (cell growth or viability, SRB; 48 h): > 100 µM
COc1ccc(/C(=C(/CCn2cc(CN3C(=O)C4(OCCO4)c4cc(F)ccc43)nn2)c2ccccc2)c2ccccc2)cc1  IC50 (cell growth or viability, MTT): > 100 µM
CCCCCCCCn1c(-c2cccnc2)nc(-c2ccccc2)c1-c1ccccc1  IC50 (cell growth or viability, SRB; 48 h): > 100 µM
N.N.O=C(CCCc1ccccc1)[O][Pt]([Cl])([Cl])[O]C(=O)CCCc1ccccc1  IC50 (cytotoxicity; 72 h): 0.18 ± 0.03 µM
O=[C]=[Re-2]1(=[C]=O)(=[C]=O)([O]C(=O)c2cccnc2)[n+]2ccc(-c3ccccc3)c3ccc4c(-c5ccccc5)cc[n+]1c4c32  IC50 (cell growth or viability, resazurin; 72 h): 3.57 µM
CC(=O)N[C@H](CC(=O)O)C(=O)N[C@H](Cc1ccccc1)C(=O)N[C@@H](CC(=O)N[C@H](CCCNC(=N)N)C(N)=O)c1ccc2ccccc2c1  IC50 (cell growth or viability, ATP luminescence; 72 h): > 100 µM
CC[C@H](CC[C@@H](C)[C@H]1CC[C@H]2[C@@H]3[C@@H](O)C=C4C[C@@H](O)CC[C@]4(C)[C@H]3CC[C@]12C)C(C)C  IC50 (cell growth or viability, MTT): > 30 µM
C/C(=N\N=C1/NC(=O)CS1)c1c(O)c2ccccc2oc1=O  IC50 (cell growth or viability, MTT; 48 h): 26.3 µM
NC(=S)NNC(=O)c1cc2ccccc2oc1=O  IC50 (cell growth or viability, SRB; 72 h): 28.6 µM
CC(=O)O[C@H]1CC[C@]2(C)[C@H]3CC=C4[C@@H]5CC(C)(C)CC[C@]5(CO)CC[C@@]4(C)[C@]3(C)CC[C@H]2C1(C)C  IC50 (cell growth or viability, SRB): 86.6 µM
CCN1CCC2(CC1)C/C(=N\NC(=O)Nc1ccc([N+](=O)[O-])cc1)c1ccccc1O2  IC50 (cell growth or viability, MTT; 48 h): 56.8 µM
CSc1nc(Nc2cccc(/C(C)=N/NC(=O)c3ccc(N)cc3)c2)c(C#N)c(-c2ccccc2)n1  IC50 (cell growth or viability, MTT; 48 h): 21.7 µM
CCCCCCCCCCCCCCCC(=O)Oc1ccc(CO)cc1OC(=O)c1ccccc1  IC50 (cell viability, MTT; 48 h, serum-free medium): 4.7 ± 0.3 µg/mL
CC(C)[C@H](NC(=O)[C@H](C(C)C)N(C)C)C(=O)N(C)[C@H](C(=O)N1CCC[C@H]1C(=O)O)C(C)C  IC50: 41 ± 6 µM
Cc1ccc(CN2C(=O)/C(=N\c3ccc(Cl)cc3Br)c3ccccc32)cc1  IC50 (cell growth or viability, MTT; 48 h): 3.04 µM
CC(=O)N[C@@H]1[C@@H](OC(C)=O)[C@H](OC(C)=O)[C@@H](COC(C)=O)O[C@H]1n1nc(-c2cc3ccccc3[nH]2)n(-c2ccccc2)c1=S  IC50 (cell growth or viability, MTT): 8.3 µM
CCCCCCCCCCCCCCCOC(=O)/C=C/c1ccc(OC)c(O)c1  IC50 (cell viability, MTT; 48 h, serum-free medium): 2.8 ± 0.2 µg/mL
C=CC(OC(C)=O)c1ccc(OC)cc1 (stereo not drawn)  IC50 (MTT; 24 h): > 50 µM
COc1c(O)c(Br)c2oc3c(Br)c(O)c(CC=C(C)C)c(O)c3c(=O)c2c1CC=C(C)C  IC50 (cell growth or viability; 48 h): 16 µM
COc1cc(OC)c2c(c1)OCC(c1cc(OC)c(OC)cc1OC)C2=NO (stereo not drawn)  IC50 (cell growth or viability, MTT; 72 h): 110 µM
COCC[n+]1cn(C2CCCC2)c2ccccc21  IC50 (cell growth or viability, MTT; 48 h): 29 µM

Repeated from above:
CCCCCCCCn1c(-c2cccnc2)nc(-c2ccccc2)c1-c1ccccc1  IC50 (cell growth or viability, SRB; 48 h): > 100 µM
N=C(N)NCCC[C@H](N)C(=O)N[C@@H](Cc1ccc(O)cc1)C(=O)N[C@@H](Cc1c[nH]c2ccccc12)C(=O)N[C@@H](Cc1ccc(O)cc1)C(=O)NCC(N)=O  IC50: > 100 µM
CSc1nc(Nc2cccc(/C(C)=N/NC(=O)c3ccccc3O)c2)c(C#N)c(-c2ccccc2)n1  IC50 (cell growth or viability, MTT; 48 h): 30.1 µM
COCC[n+]1cn(C2CCCC2)c2ccccc21  IC50 (cell growth or viability, MTT; 48 h): 29 µM
